Published values collected from several papers.
Compare with care: the assays were run in different laboratories. Values joined by “and” are separate records of one study, mostly repeats; a detail may differ. ± marks the error that the study gave.
Tumor necrosis factor receptor superfamily member 9/Nectin-4: Tumor necrosis factor receptor superfamily member 9/Nectin-4 (Homo sapiens, UniProt Q07011+Q96NY8)
T1: preQ1-II riboswitch RNA (Carnobacterium antarcticum); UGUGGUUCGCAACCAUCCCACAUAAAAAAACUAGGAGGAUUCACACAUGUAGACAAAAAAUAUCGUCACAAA
T2: RNA A16C/A37U, hybrid riboswitch; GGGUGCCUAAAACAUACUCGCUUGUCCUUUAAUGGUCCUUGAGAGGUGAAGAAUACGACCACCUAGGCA

SMILES | target | assay | system | conditions | scale | quantity | value
COc1cc(F)ccc1-c1ncnc(Nc2cccc(C[S@](C)(=N)=O)c2)n1 | Eukaryotic elongation factor 2 kinase (EEF2K, Homo sapiens, UniProt O00418) | kinase activity | – | 10 µM, added: 10 µM ATP | – | remaining activity | 102%
C[C@H]1O[C@@H](O[C@H]2CC[C@@]3(C)[C@@H](CC[C@]4(C)[C@@H]3C=C[C@]35OC[C@@]6(CCC(C)(C)C[C@H]63)[C@@H](O)C[C@]54C)[C@]2(C)CO)[C@H](O)[C@@H](O[C@@H]2O[C@H](CO)[C@@H](O)[C@H](O)[C@H]2O)[C@H]1O | NAD-dependent protein deacetylase sirtuin-1 (SIRT1, Homo sapiens, UniProt Q96EB6) | binding, microscale thermophoresis | – | 185 nM | – | MST normalised fluorescence | 885 a.u.
CC[C@@H]1[C@H](F)C(=O)N[C@@H]1COc1nccc2cc(C(N)=O)c(OC)cc12 | Serine/threonine-protein kinase PRP4 homolog (PRPF4B, Homo sapiens, UniProt Q13523) | ATP-site probe binding, ActivX profiling | THP-1 cell lysate | 0.01 mM, Lys1 site | – | inhibition | -2.3%
C[C@@H](O)[C@H]1C(=O)N2C(C(=O)O)=C(S[C@@H]3CN[C@H](C(=O)N(C)C)C3)[C@H](C)[C@H]12 | beta-lactamase OXA-1152 | enzyme activity, substrate, HPLC hydrolysis | – | – | – | Km | 0.0232 µM
Nc1ccc(C(=O)O)cc1 | BEST1, with wild-type BEST1 (Homo sapiens, UniProt O76090, R218H) | ion current, whole-cell patch clamp | HEK293 co-expressing mutant and wild-type | concentration not given, voltage 40 mV | – | current density | 15.8 pA/pF and 10.8 pA/pF and 7.94 pA/pF and 2.14 pA/pF and 12.9 pA/pF and 6.94 pA/pF and 4.19 pA/pF and 3.04 pA/pF
N#Cc1cccc(C(=O)Nc2ccc3c(c2)CN(C2CCC(=O)NC2=O)C3=O)c1 (stereo not shown) | Cereblon/Casein kinase I alpha (CSNK1A1/CRBN, Homo sapiens, UniProt P48729+Q96SW2) | degrader, live-cell HiBiT kinetic | HEK293 LgBiT | 10 µM | – | degradation rate constant | 1.7 h⁻¹
CCCC[C@@H]1NC(=O)[C@H](Cc2ccc(O)cc2)NC(=O)[C@@H]2CCCN2C(=O)[C@H](CC(=O)O)NC(=O)[C@H](C)NC(=O)[C@H](Cc2ccccc2)NC(=O)[C@@H]2CSCCC(=O)N3CN(CN(C3)C(=O)CCSC[C@@H](C(=O)N[C@@H](C)C(N)=O)NC1=O)C(=O)CCSC[C@H](NC(C)=O)C(=O)N[C@@H](CC(C)(C)C)C(=O)N1CCC[C@H]1C(=O)N[C@@H](CCC(=O)O)C(=O)N[C@H](CCCCNC(=O)CCOCCOCCOCCOCCOCCOCCOCCOCCOCCOCCOCCOCCn1cc(CCC(=O)NCCC(=O)N(C)CC(=O)N(C)CC(=O)N(C)CC(=O)N(C)CC(=O)N(C)CC(=O)N(C)CC(=O)N(C)CC(=O)N(C)CC(=O)N(C)CC(=O)N(C)CC(=O)N[C@H]3CSCCC(=O)N4CN5CN(C4)C(=O)CCSC[C@H](NC(=O)[C@@H](CC(=O)O)NC(=O)[C@H](Cc4cccc6ccccc46)NC(=O)[C@@H]4CCCN4C3=O)C(=O)N[C@@H](CCSC)C(=O)N[C@@H](CCCCNC(=N)N)C(=O)N[C@@H](CC(=O)O)C(=O)N[C@@H](Cc3c[nH]c4ccccc34)C(=O)N[C@@H](CO)C(=O)N[C@@H]([C@@H](C)O)C(=O)N3CCC[C@H]3C(=O)N3C[C@H](O)C[C@H]3C(=O)N[C@@H](Cc3c[nH]c4ccccc34)C(=O)N[C@H](C(N)=O)CSCCC5=O)nn1)C(=O)N1CCC[C@H]1C(=O)N[C@@H](Cc1ccc(O)cc1)C(=O)N2 | Tumor necrosis factor receptor superfamily member 9/Nectin-4 | reporter gene, agonist | HT-1376 coculture with reporter cells | – | reference: background | Emax | 44 fold
NCc1c[nH]c2nc(N)[nH]c(=O)c12 | T1, preQ1-II riboswitch RNA (Carnobacterium antarcticum) | ribosome-assembly cleavage, RelE cleavage assay | – | apparent, added: preQ1 | – | EC50 | 15 µM
c1ccc(-c2n[nH]cc2-c2ccnc3ccccc23)nc1 | Mitogen-activated protein kinase HOG1 (HOG1, Candida albicans, UniProt Q92207) | MIB/MS competition binding | Candida albicans cell lysate | 100 nM | reference: DMSO, lower = stronger binding | log2 fold change | 1.42
O=C(O)[C@@H]1CCCN1c1ncnc2[nH]cnc12 (racemic) | FBXW7 (Homo sapiens, UniProt Q969H0) | binding, affinity selection mass spectrometry | – | – | reference: other proteins in batch | fold enrichment | 0.876
[H]/N=C(/N)NCC(=O)O | Sodium- and chloride-dependent taurine transporter (SLC6A6, Homo sapiens, UniProt P31641, L306A) | binding, microscale thermophoresis | – | 7.81 µM, room temperature, added: 50 nM labelled protein | higher = more binding | normalised MST signal | 0.0065
CC(=O)Nc1ccc(S(=O)(=O)N2CCN(CC(O)COc3ccc4ccccc4c3)CC2)cc1 (stereo not shown) | Sodium channel protein type 8 subunit alpha, C-terminal domain (SCN8A, Homo sapiens, UniProt Q9UQD0) | binding, protein thermal shift | – | 25 µM | – | delta Tm | 8.8 °C
NC(=O)c1ccc[n+]([C@@H]2O[C@H](COP(=O)([O-])OP(=O)(O)OC[C@H]3O[C@@H](n4cnc5c(NCCNC(=O)CCCCCNC(=O)CCCCCNC(=O)CCCC[C@@H]6SC[C@@H]7NC(=O)N[C@@H]76)ncnc54)[C@H](O)[C@@H]3O)[C@@H](O)[C@H]2O)c1 | Poly [ADP-ribose] polymerase 2 (PARP2, Homo sapiens, UniProt Q9UGN5) | substrate, DELFIA auto-modification | – | – | – | apparent Km | 5 µM
CCCCC[C@H](O)/C=C/[C@H]1[C@H](O)CC(=O)[C@@H]1C/C=C\CCCC(=O)O | Prostaglandin E2 receptor EP1 subtype (PTGER1, Homo sapiens, UniProt P34995, I352A) | IP1 accumulation, agonist | AD293 | 1 h, EP1 I352A mutant | – | Emax | 54.5 ± 4.56%
O=c1nc(SCc2ccc(C(F)(F)F)cc2)nc(SCc2csc3ccc(Cl)cc23)[nH]1 | DNA topoisomerase 2-alpha (TOP2A, Homo sapiens, UniProt P11388) | decatenation | – | 0.12 µM, replicate 2 | – | decatenated DNA | 0%
c1coc(-c2n[nH]cc2-c2ccnc3ccccc23)c1 | Mitosis inhibitor protein kinase SWE1 (SWE1, Candida albicans, UniProt Q5AP97) | kinase binding, MIB/MS competition | Candida albicans lysate | 10 µM | reference: DMSO, negative = stronger binding | log2 fold change | 0.09
C[C@H](CCC(C)(C)O)[C@H]1CC[C@H]2[C@@H]3CC=C4C[C@@](C)(O)CC[C@]4(C)[C@H]3CC[C@]12C | Glutamate NMDA receptor; GRIN1/GRIN2B (GRIN1/GRIN2B, Homo sapiens, UniProt Q05586+Q13224, L655Y) | positive allosteric modulator, two-electrode voltage clamp | Xenopus oocytes expressing GluN1-L655Y | 10 µM, 0.02% cremophor, added: 100 µM glutamate and glycine | reference: without compound | current response | 160 ± 4.6%
Nc1ncnc2c1ncn2[C@@H]1O[C@H](COP(=O)(O)CP(=O)(O)OP(=O)(O)O)[C@@H](O)[C@H]1O | P2X purinoceptor 1 (P2RX1, Homo sapiens, UniProt P51575, D97A) | calcium influx | – | 10 nM | reference: ionomycin response | calcium influx | 0%
COc1ccc(Cc2nnc(NS(=O)(=O)c3cccc(Cl)c3)s2)cc1 | Glutathione hydrolase 1 proenzyme, without transmembrane domain (Homo sapiens, UniProt P19440) | GSH hydrolysis, uncompetitive inhibitor | – | 37 °C, binds gamma-glutamyl enzyme, added: GSH 5-20 µM | – | Kii | 67 ± 6 µM
CN(C)[C@@H]1C(=O)C(C(N)=O)=C(O)[C@@]2(O)C(=O)C3=C(O)c4c(O)cccc4[C@@](C)(O)[C@H]3C[C@@H]12 | T2, RNA A16C/A37U, hybrid riboswitch | in-line probing | – | 72 h, Mg2+ 10 mM, K+ 100 mM | – | binding | binds
CC(=O)N[C@H](C(=O)N1C[C@H](O)C[C@H]1C(=O)NCc1ccc(-c2scnc2C)cc1)C(C)(C)SCCCCCCNC(=O)C[C@@H]1N=C(c2ccc(Cl)cc2)c2c(sc(C)c2C)-n2c(C)nnc21 | Bromodomain-containing protein 2, BD1 (BRD2, Homo sapiens, UniProt P25440) | binding, ITC | – | 25 °C, compound in cell, protein in syringe | – | ΔH | -16.2 ± 0.6 kcal/mol
Cc1cc2c(cc1N1C(=O)c3cccc4c(Cl)ccc(c34)C1=O)n(C)c(=O)n2C | Protein polybromo-1, bromodomain 4 (PBRM1, Homo sapiens, UniProt Q86U86) | binding, thermal shift | – | 10 µM | higher = stronger binding | thermal shift | -0.3 °C
NC/C(=C\F)COc1cccc(Cn2c(=S)[nH]c(=O)c3[nH]cnc32)c1 | Myeloperoxidase (MPO, Homo sapiens, UniProt P05164) | enzyme activity, inhibitor, H2O2 electrode | – | 0.028 µM | – | H2O2 consumption | 121%
CC(=O)N[C@@H]1[C@@H](O[C@H]2O[C@H](CO)[C@H](O)[C@H](O)[C@H]2O)[C@@H](O)[C@@H](CO)O[C@H]1O | Frizzled-8 (Xenopus laevis, UniProt Q91719) | binding, biolayer interferometry | – | 25 °C, added: immobilized biotinylated carbohydrate | – | association rate constant | 3960 M⁻¹ s⁻¹
CC1=C(/C=C/C(C)=C/C=C/C(C)=C/C=O)C(C)(C)CCC1 | Rhodopsin (RHO, Bos taurus, UniProt P02699, I189V) | retinal entry, Trp FRET | lipid bicelles | 28 °C, I189V mutant | reference: wild-type rhodopsin | relative kon | 1.09 ± 0.04
CCCC[C@@H]1NC(=O)[C@H](Cc2ccc(O)cc2)NC(=O)[C@@H]2CCCN2C(=O)[C@H](CC(=O)O)NC(=O)[C@H](C)NC(=O)[C@H](Cc2ccccc2)NC(=O)[C@@H]2CSCCC(=O)N3CN(CN(C3)C(=O)CCSC[C@@H](C(=O)N[C@@H](C)C(N)=O)NC1=O)C(=O)CCSC[C@H](NC(C)=O)C(=O)N[C@@H](CC(C)(C)C)C(=O)N1CCC[C@H]1C(=O)N[C@@H](CCC(=O)O)C(=O)N[C@H](CCCCNC(=O)CCc1cn(CCOCCOCCCOCCOCCOCCOCCOCCOCCOCCOCCNC(=O)CCOCC(COCCC(=O)NCCOCCOCCOCCOCCOCCOCCOCCOCCOCCOCCn3cc(CCC(=O)NCCCC[C@H]4NC(=O)[C@H](CCC(=O)O)NC(=O)[C@@H]5CCCN5C(=O)[C@H](CC(C)(C)C)NC(=O)[C@@H](NC(C)=O)CSCCC(=O)N5CN6CN(C5)C(=O)CCSC[C@H](NC(=O)[C@H](Cc5ccc(O)cc5)NC(=O)[C@@H]5CCCN5C4=O)C(=O)N[C@@H](Cc4ccccc4)C(=O)N[C@@H](C)C(=O)N[C@@H](CC(=O)O)C(=O)N4CCC[C@H]4C(=O)N[C@@H](Cc4ccc(O)cc4)C(=O)N[C@@H](CCCC)C(=O)N[C@H](C(=O)N[C@@H](C)C(N)=O)CSCCC6=O)nn3)(COCCC(=O)NCCOCCOCCOCCOCCOCCOCCOCCOCCOCCOCCn3cc(CCC(=O)NCCCC[C@H]4NC(=O)[C@H](CCC(=O)O)NC(=O)[C@@H]5CCCN5C(=O)[C@H](CC(C)(C)C)NC(=O)[C@@H](NC(C)=O)CSCCC(=O)N5CN6CN(C5)C(=O)CCSC[C@H](NC(=O)[C@H](Cc5ccc(O)cc5)NC(=O)[C@@H]5CCCN5C4=O)C(=O)N[C@@H](Cc4ccccc4)C(=O)N[C@@H](C)C(=O)N[C@@H](CC(=O)O)C(=O)N4CCC[C@H]4C(=O)N[C@@H](Cc4ccc(O)cc4)C(=O)N[C@@H](CCCC)C(=O)N[C@H](C(=O)N[C@@H](C)C(N)=O)CSCCC6=O)nn3)COCCC(=O)NCCOCCOCCOCCOCCOCCOCCOCCOCCOCCOCCn3cc(CCC(=O)NCCC(=O)N[C@H]4CSCCC(=O)N5CN6CN(C5)C(=O)CCSC[C@H](NC(=O)[C@@H](CC(=O)O)NC(=O)[C@H](Cc5cccc7ccccc57)NC(=O)[C@@H]5CCCN5C4=O)C(=O)N[C@@H](CCSC)C(=O)N[C@@H](CCCCNC(=N)N)C(=O)N[C@@H](CC(=O)O)C(=O)N[C@@H](Cc4c[nH]c5ccccc45)C(=O)N[C@@H](CO)C(=O)N[C@@H]([C@@H](C)O)C(=O)N4CCC[C@H]4C(=O)N4C[C@H](O)C[C@H]4C(=O)N[C@@H](Cc4c[nH]c5ccccc45)C(=O)N[C@H](C(N)=O)CSCCC6=O)nn3)nn1)C(=O)N1CCC[C@H]1C(=O)N[C@@H](Cc1ccc(O)cc1)C(=O)N2 | Tumor necrosis factor receptor superfamily member 9/Nectin-4 | reporter gene, agonist | HT-1376 coculture with reporter cells | – | reference: background | Emax | 51 fold
COc1cccc2c(Nc3ccc4[nH]c(C(=O)N/N=C/c5ccc(SC)cc5)cc4c3)cc(C)nc12 | Nuclear receptor subfamily 4 group A member 1 (NR4A1, Homo sapiens, UniProt P22736) | reporter gene, NBRE reporter full-length | – | 3 µM | reference: vehicle | activation | 1.3 fold
CNc1ccc(C(=O)OC)cc1-n1cnc(-c2ccc(C(F)(F)F)cc2)c1 | Toll-like receptor 1/2 (Homo sapiens, UniProt O60603+Q15399) | reporter gene, agonist | HEK-Blue hTLR2 | concentration not given | – | maximal activation | ≥ 50%

A few entries again:
SMILES | target | assay | system | conditions | scale | quantity | value
C[C@@H](O)[C@H]1C(=O)N2C(C(=O)O)=C(S[C@@H]3CN[C@H](C(=O)N(C)C)C3)[C@H](C)[C@H]12 | beta-lactamase OXA-1152 | enzyme activity, substrate, HPLC hydrolysis | – | – | – | Km | 0.0232 µM
Cc1cc2c(cc1N1C(=O)c3cccc4c(Cl)ccc(c34)C1=O)n(C)c(=O)n2C | Protein polybromo-1, bromodomain 4 (PBRM1, Homo sapiens, UniProt Q86U86) | binding, thermal shift | – | 10 µM | higher = stronger binding | thermal shift | -0.3 °C
